Published values of several laboratories.
Numbered parts are unrelated; each lists some results of a single study. Positions count from the first letter of the parent shown.

Study 1 — target: CCNA2, cyclin fold, Cln2 fusion (human); method: yeast growth competition, sequencing; medium: yeast; notes: strong parent motif; relative to: not given; direction: higher = stronger binding
Starting sequence: CDC6 docking peptide (human); TLKGRRLVFDNQL; partner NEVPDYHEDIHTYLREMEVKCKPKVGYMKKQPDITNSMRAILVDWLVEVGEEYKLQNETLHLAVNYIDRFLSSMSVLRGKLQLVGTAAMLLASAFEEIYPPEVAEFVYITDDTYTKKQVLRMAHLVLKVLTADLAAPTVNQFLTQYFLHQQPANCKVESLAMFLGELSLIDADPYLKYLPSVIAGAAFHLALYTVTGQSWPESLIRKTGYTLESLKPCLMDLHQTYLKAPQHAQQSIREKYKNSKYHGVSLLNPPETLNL
Variant	normalised enrichment score
MLKGRRLVFDNQL [T1M]	3.82
TLKGRRLVFDIQL [N11I]	1.98
TLKQRRLVFDNQL [G4Q]	1.76
TFKGRRLVFDNQL [L2F]	2.96
TLKGRRSVFDNQL [L7S]	0.72
TLKGRELVFDNQL [R6E]	-0.833
TLKGRRLVFDHQL [N11H]	2.53
TLKTRRLVFDNQL [G4T]	1.23
TLKGRRLVFYNQL [D10Y]	1.64

Study 2 — method: protein binding microarray; molecule type: double-stranded DNA, one strand shown; medium: in vitro; tested at: not given; relative to: not given; direction: higher = stronger binding
Target: Histone acetyltransferase KAT6A, winged helix 1, GST fusion (KAT6A, Homo sapiens, UniProt Q92794, residues 1-85)
Notes: 8-mer, flanks averaged, mean of 2 arrays, mostly near background
Residues (chain): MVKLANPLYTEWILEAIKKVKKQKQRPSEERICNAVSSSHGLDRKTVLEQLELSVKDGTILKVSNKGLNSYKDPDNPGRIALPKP
Sequence	E-score
AGATGGAT	-0.18
CATCCAGA	-0.127
CTTGTAAA	-0.207
CATTAGCG	0.323
CCATATGG	-0.133
GCCTGAGC	0.0814
TACGACTA	-0.0359
CACGCGCG	0.457
CTCTAGAG	-0.0322
CGGTCTGC	0.261
AGTCGTAG	-0.215

Study 3 — method: DHFR PCA, deep sequencing; medium: yeast; together with: (+)-ABA 0 µM; relative to: wild-type fitted maximum; direction: higher = stronger binding
Target: ABI1, truncated, D143A, DHFR fusion (Arabidopsis thaliana)
Notes: methotrexate growth selection, single substitutions
Starting sequence: PYL1, truncated, DHFR fusion (Arabidopsis thaliana); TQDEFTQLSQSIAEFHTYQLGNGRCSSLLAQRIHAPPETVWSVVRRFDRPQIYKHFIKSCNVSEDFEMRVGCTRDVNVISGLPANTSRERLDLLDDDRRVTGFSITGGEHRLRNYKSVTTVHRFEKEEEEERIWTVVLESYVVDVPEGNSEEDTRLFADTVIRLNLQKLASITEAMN; partner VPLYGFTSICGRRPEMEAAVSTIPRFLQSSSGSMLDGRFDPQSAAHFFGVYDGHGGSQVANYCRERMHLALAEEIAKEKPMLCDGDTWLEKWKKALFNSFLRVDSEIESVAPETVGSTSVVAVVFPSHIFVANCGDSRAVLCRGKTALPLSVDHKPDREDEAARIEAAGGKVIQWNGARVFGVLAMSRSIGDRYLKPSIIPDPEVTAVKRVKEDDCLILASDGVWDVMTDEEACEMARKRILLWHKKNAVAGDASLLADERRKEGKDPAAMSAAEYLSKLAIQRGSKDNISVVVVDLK
Variant	relative binding score [%]
Y115E	5.92
E151K	28.2
S42C	1.38
S117V	1.42
V136D	5.24
S80P	-0.334
A175S	23.4
L164V	9.9
P37L	1.47
K168N	57.2
R111P	21.8
W134E	29.6
L93W	-5.32
N149K	10.3
L91F	3.28

Other studies, line by line
Substance	target	assay	system	setting	how to read	quantity	value
PhoQ, residues 284 288 289 292 302 303 SNGLAW	PhoP, residues 12 14 15 18 19 YHFSH (Escherichia coli, UniProt P23836)	Sort-seq, refers to: YFP reporter	E. coli	PhoQ-PhoP variant library, together with: 10 µM Mg2+	relative to: high Mg2+ state, higher = stronger signaling	fold induction	4.05

For quick reference, copied from above (study 2):
Sequence	E-score
TACGACTA	-0.0359
CATCCAGA	-0.127
CACGCGCG	0.457
CCATATGG	-0.133
